Results pooled from the literature.
Each line is one published result; not all experiments were run side by side. “And” joins repeats or separate records; there may be more than shown. ± marks the error that the study gave.
rep main protease: Replicase polyprotein 1ab, main protease (rep, Severe acute respiratory syndrome coronavirus 2, UniProt P0DTD1)

CC(C)(C)[C@H](NC(=O)C(F)(F)F)C(=O)N1C[C@H]2[C@@H]([C@H]1C(=O)N[C@H](C#N)C[C@@H]1CCNC1=O)C2(C)C
inhibition (SARS-CoV-2; viral replication, infectious virus; Vero E6; 3 µM): 97.2%

O=C1NCN(c2ccccc2)C12CCN(CCCC(c1ccc(F)cc1)c1ccc(F)cc1)CC2
EC50 (SARS-CoV-2; viral replication, high-content imaging screen; cell-based): > 100 µM

Cc1nn(-c2ccc(Cl)cc2)c2c1C(c1ccc(Cl)c(Cl)c1)C(C#N)=C(N)O2 (stereo not shown)
viral reduction (SARS-CoV-2; viral replication; Vero; 10 µM): 2.35%

CCC(CC)COC(=O)[C@H](C)N[P@](=O)(OC[C@H]1O[C@@](C#N)(c2ccc3c(N)ncnn23)[C@H](O)[C@@H]1O)Oc1ccccc1
selectivity index (SARS-CoV-2; Vero C1008; relative to: cytotoxicity IC50 over antiviral EC50): 1480

Cc1nn(-c2ccc(Cl)cc2)c2c1C(c1ccc(F)cc1F)C(C#N)=C(N)O2 (stereo not shown)
Ct value (SARS-CoV-2; RT-qPCR, item: viral RNA; Vero; 1 µM; higher means less virus): 23.7 cycles

CN(C)CCOC(C)(c1ccccc1)c1ccccn1 (stereo not shown)
IC50 (SARS-CoV-2; viral replication, RT-qPCR; A549 expressing ACE2): > 10 µM

CNC1CC(c2ccc(Cl)c(Cl)c2)c2ccccc21 (stereo not shown)
EC50 (SARS-CoV-2; viral replication, high-content imaging screen; cell-based): > 100 µM

Cc1ccc(Nc2nccc(N(C)c3ccc4c(C)n(C)nc4c3)n2)cc1S(N)(=O)=O
viral replication inhibition (SARS-CoV-2; concentration not given, Paris laboratory): inactive

CCC1(C)CC(=O)NC1=O (stereo not shown)
IC50 (SARS-CoV-2; viral replication; Huh-7): > 2 µM

O=C(/C=C/c1ccc(O)c(O)c1/C=C/c1ccc(O)c(O)c1)O[C@H](Cc1ccc(O)c(O)c1)C(=O)O
CPE inhibition (SARS-CoV-2; viral replication; Vero E6; 0.7812 µM; relative to: mean of replicates): 0%

Cc1nn(-c2ccc(Cl)cc2)c2c1C(c1ccc(Br)cc1)C(C#N)=C(N)O2 (stereo not shown)
Ct value (SARS-CoV-2; RT-qPCR, item: viral RNA; Vero; 1 µM; higher means less virus): 23.2 cycles

Cc1cc(OCC(O)CN2CCN(c3cccc(Cl)c3)CC2)ccc1Cl (stereo not shown)
efficacy (SARS-CoV-2; cytopathic effect; USA_WA1/2020; round 1, 5-point): 88.3%

Nc1ncnc2c([C@@H]3N[C@H](CO)[C@@H](O)[C@H]3O)c[nH]c12
inhibition (Marburg virus; viral replication; HeLa, Musoke; 1.6 µM): 18%

COc1ccc(-c2cn3c(n2)sc2cc(C(=O)NCCCN4CCCCCC4)ccc23)cc1
maximum response (SARS-CoV-2; cytopathic effect; USA_WA1/2020; retest, 8-point, duplicates): 68.5%

CNC(=O)[C@@H](NC(=O)[C@H](CC(C)C)[C@H](O)C(=O)NO)C(C)(C)C
inhibition (prothrombin time; human platelet-poor plasma; 100 µM, added: GA venom): 19.9% and 19.3% and 18.5%

COc1ccccc1C(=O)NC1CCCN(Cc2cccc(-c3ccc(C)c(Cl)c3)c2)C1 (stereo not shown)
maximum response (SARS-CoV-2; cytopathic effect; USA_WA1/2020; retest, 8-point, duplicates): 41.8%

COC(=O)[C@@H](Cc1ccc(O)c(O)c1)OC(=O)/C=C/c1ccc(O)c(O)c1
inhibition (rep main protease; reporter gene (Gaussia luciferase), inhibitor; HEK293T; 20 µM): 0.485%

Cc1ccc(C)c(Nc2cc(C(=O)NCCCN(C)C3CCCCC3)c3ccccc3n2)c1
efficacy (SARS-CoV-2; cytopathic effect; USA_WA1/2020; retest, 8-point, duplicates): 0%

COc1cccc2c(N3CCc4ccccc4C3C)nc(Nc3ccc(F)cc3C)nc12 (stereo not shown)
EC90 (SARS-CoV-2; viral replication, inhibitor; Vero E6, USA-WA1/2020; 24 h): ~1.21 µM

Cc1nc(Nc2ncc(C(=O)Nc3c(C)cccc3Cl)s2)cc(N2CCN(CCO)CC2)n1
IC50 (SARS-CoV-2; viral replication; Huh-7): > 2 µM

CC(=O)[C@H]1CC[C@H]2[C@@H]3CCC4=CC(=O)CC[C@]4(C)[C@H]3CC[C@]12C
viral replication inhibition (SARS-CoV-2; concentration not given, Paris laboratory): inactive

Fc1ccc([C@@H]2CCNC[C@H]2COc2ccc3c(c2)OCO3)cc1
IC50 (SARS-CoV-2; viral replication, RT-qPCR; A549-ACE2): 2.4 µM

O=C(O[C@@H]1Cc2c(O)cc(O)cc2O[C@@H]1c1cc(O)c(O)c(O)c1)c1cc(O)c(O)c(O)c1
CPE inhibition (SARS-CoV-2; viral replication; Vero E6; 25 µM; relative to: mean of replicates): 8.33%

COc1ccc2c(Sc3ccccc3)c(C(=O)NCCCN3CCCCC3)[nH]c2c1
efficacy (SARS-CoV-2; cytopathic effect; USA_WA1/2020; retest, 8-point, duplicates): 73.4%

C[C@H]1[C@H]2CC[C@H]3[C@@H]4CC=C5C[C@@H](N(C)C)CC[C@]5(C)[C@H]4CC[C@]23CN1C
EC50 (SARS-CoV-2; viral replication, high-content imaging screen; cell-based): > 25.1 µM

CC[C@H](C)[C@H](NC(=O)[C@H](CC(C)C)NC(=O)[C@H](Cc1c[nH]c2ccccc12)NC(=O)[C@H](CCC(N)=O)NC(=O)[C@@H](NC(=O)[C@H](Cc1ccccc1)NC(=O)[C@H](C)NC(=O)[C@H](CCCCNC(=O)COCCOCCNC(=O)COCCOCCNC(=O)CC[C@H](NC(=O)CCCCCCCCCCCCCCCCCCC(=O)O)C(=O)O)NC(=O)[C@H](CCC(N)=O)NC(=O)[C@H](C)NC(=O)[C@@H](NC(=O)[C@H](CCCCN)NC(=O)[C@H](CC(=O)O)NC(=O)[C@H](CC(C)C)NC(=O)C(C)(C)NC(=O)[C@@H](NC(=O)[C@H](CO)NC(=O)[C@H](Cc1ccc(O)cc1)NC(=O)[C@H](CC(=O)O)NC(=O)[C@H](CO)NC(=O)[C@@H](NC(=O)[C@H](Cc1ccccc1)NC(=O)[C@@H](NC(=O)CNC(=O)[C@H](CCC(=O)O)NC(=O)C(C)(C)NC(=O)[C@@H](N)Cc1ccc(O)cc1)[C@@H](C)O)[C@@H](C)O)[C@@H](C)CC)[C@@H](C)CC)C(C)C)C(=O)N[C@@H](C)C(=O)NCC(=O)NCC(=O)N1CCC[C@H]1C(=O)N[C@@H](CO)C(=O)N[C@@H](CO)C(=O)NCC(=O)N[C@@H](C)C(=O)N1CCC[C@H]1C(=O)N1CCC[C@H]1C(=O)N1CCC[C@H]1C(=O)N[C@@H](CO)C(N)=O
serum lipase (healthy subjects, single ascending dose; 2.5 mg, day 29): 28.5 ± 16 U/L

Cc1ccc(NS(=O)(=O)c2cccc(C(=O)NC3CCN(c4ncnc5[nH]cnc45)CC3)c2)cc1
relative infection (SARS-CoV-2; A549-ACE2, Wuhan-Hu-1; 0.01016 µM; relative to: untreated): 102%

COc1ccc2cc1Oc1ccc(cc1)C[C@H]1c3cc(c(OC)cc3CCN1C)Oc1c(OC)c(OC)cc3c1[C@H](C2)N(C)CC3
inhibition (SARS-CoV-2; viral replication; Vero E6, USA-WA1/2020; 2.5 µM): 88.9%

O=C(CCCN1CCC(O)(c2ccc(Cl)cc2)CC1)c1ccc(F)cc1
viral replication inhibition (SARS-CoV-2; concentration not given, Paris laboratory): inactive

CCC(CC)COC(=O)[C@H](C)N[P@](=O)(OC[C@H]1O[C@@](C#N)(c2ccc3c(N)ncnn23)[C@H](O)[C@@H]1O)Oc1ccccc1
inhibition (SARS-CoV-2; viral replication; Vero E6, USA-WA1/2020; 2.5 µM): 97.1%

Cc1ccc2nc(C3CCCN(Cc4cccc(-c5cccnc5)c4)C3)[nH]c(=O)c2c1 (stereo not shown)
AC50 (SARS-CoV-2; cytopathic effect, cell-based CPE; USA_WA1/2020; round 2, 5-point dilution): 12.6 µM

CC(=O)N[C@H]1[C@H]([C@H](O)[C@H](O)CO)OC(C(=O)O)=C[C@@H]1N=C(N)N
IC50 (SARS-CoV-2; viral replication; Huh-7): > 2 µM

CC(C)(C)c1cc(C(C)(C)C)c(NC(=O)c2c[nH]c3ccccc3c2=O)cc1O
EC50 (SARS-CoV-2; viral replication, high-content imaging screen; cell-based): > 25.1 µM

Cn1cnc(Cn2c(=O)[nH]/c(=N\c3cc4cn(C)nc4cc3Cl)n(Cc3cc(F)c(F)cc3F)c2=O)n1
dry mouth TEAE, Moderate severity (human, moderate renal impairment; oral, 375 mg): 0%

CN(CCc1ccc(Cl)c(Cl)c1)CCN1CCCC1
IC50 (SARS-CoV-2; viral replication, anti-NP immunostaining; Vero E6): 5.13 µM

CSc1ccc2c(c1)C(N1CCN(C)CC1)Cc1ccccc1S2 (stereo not shown)
EC50 (SARS-CoV-2; viral replication, GFP plate reader screen; cell-based): 7.24 µM

CC1=C(/C=C/C(C)=C/C=C/C(C)=C/C(=O)OCC(=O)C(C)(C)C)C(C)(C)CCC1
inhibition (SARS-CoV-2; viral replication; Vero E6, USA-WA1/2020; 2.5 µM): 44.1%

CC(C)=CCc1c(O)ccc(C(=O)/C=C/c2ccc(O)cc2)c1O
CPE inhibition (SARS-CoV-2; viral replication; Vero E6; 3.125 µM): 0%

CCN(CC)CCOC1(c2ccccc2)CCN(CCNc2ccccc2)CC1
EC50 (SARS-CoV-2; viral replication, high-content imaging screen; cell-based): 22.4 µM

Cc1ccc(Cl)cc1N1CCN(CCCNc2ncnc3onc(-c4ccc(F)cc4)c23)CC1
maximum response (SARS-CoV-2; cytopathic effect; USA_WA1/2020; round 1, 5-point): 65.8%

Cn1cnc(Cn2c(=O)[nH]/c(=N\c3cc4cn(C)nc4cc3Cl)n(Cc3cc(F)c(F)cc3F)c2=O)n1
inhibition (SARS-CoV-2; viral replication; Vero C1008, wild type; 0.005716 µM): 0%

COc1cc(CNC(=O)CCCC/C=C/C(C)C)ccc1O
IC50 (SARS-CoV-2; viral replication; Huh-7): > 2 µM

CCN(CC)CCOc1ccc(-c2nc3cc(Cl)ccc3s2)cc1
EC50 (SARS-CoV-2; viral replication, GFP plate reader screen; cell-based): 3.89 µM

Cc1nn(-c2ccc(Cl)cc2)c2c1C(c1ccc(Cl)cc1Cl)C(C#N)=C(N)O2 (stereo not shown)
viral titre log reduction (SARS-CoV-2; Vero C1008; 1 µM; relative to: positive control): 0.0994 log10

COc1ccc(O)cc1OC
inhibition (rep main protease; reporter gene (Gaussia luciferase), inhibitor; 20 µM): -0.415%

COc1ccc(C[C@@H]2c3cc(Oc4cc(C[C@@H]5c6cc(O)c(OC)cc6CCN5C)ccc4O)c(OC)cc3CCN2C)cc1
CPE inhibition (SARS-CoV-2; viral replication; Vero E6; 12.5 µM; relative to: mean of replicates): 0%

NC(=O)C(c1ccccc1)(c1ccccc1)[C@@H]1CCN(CCc2ccc3c(c2)CCO3)C1
EC50 (SARS-CoV-2; viral replication, high-content imaging screen; cell-based): > 100 µM

CCC(=O)CCCCC[C@@H]1NC(=O)[C@H]2CCCCN2C(=O)[C@H]([C@@H](C)CC)NC(=O)[C@H](Cc2cn(OC)c3ccccc23)NC1=O
viral replication inhibition (SARS-CoV-2; Vero E6; concentration not given, NYC laboratory): inactive

COc1ccc(Nc2nc(Nc3ccc(OC)cc3OC)nc(N3CCOCC3)n2)c(OC)c1
efficacy (SARS-CoV-2; cytopathic effect, cell-based CPE; USA_WA1/2020; round 2, 5-point dilution): 87.5%
